Published values from different studies.
A part holds a random share of what one study measured. Positions count from the first letter of the parent shown.

Set 1
Target: ABI1, truncated, D143A, DHFR fusion (Arabidopsis thaliana)
Method: DHFR PCA, deep sequencing
Matrix: yeast
Setting: methotrexate growth selection, single substitutions
With: (+)-ABA 0.032 µM
Relative to: wild-type fitted maximum
Direction: higher = stronger binding
Starting sequence: PYL1, truncated, DHFR fusion (Arabidopsis thaliana); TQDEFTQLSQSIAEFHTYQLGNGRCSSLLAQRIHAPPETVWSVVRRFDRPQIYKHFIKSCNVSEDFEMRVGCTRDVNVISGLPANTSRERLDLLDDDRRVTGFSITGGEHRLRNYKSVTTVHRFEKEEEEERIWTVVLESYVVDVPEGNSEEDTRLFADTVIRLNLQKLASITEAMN
Change	relative binding score [%]
R113G	5.97
I172K	-2.78
K126I	22.5
R155D	-4.23
F66S	5.76
I162R	8.21
T173V	11.6
P146I	18
T17W	-5.63
H55E	16.4
A35K	-6.15
H122Y	5.2
V40S	6.8
I172G	-3.48
Q7M	29.7
R69M	9.85
E152K	-0.0574
T86G	3.12
W41L	2.68
Q7Y	24.6
I172P	-9.04
I172C	-6.05

Set 2
Target: CCNE1, cyclin fold, Cln2 fusion (human)
Method: yeast growth competition, sequencing
Matrix: yeast
Setting: strong parent motif
Relative to: not given
Direction: higher = stronger binding
Starting sequence: E2F1 docking peptide (human); PPVKRRLDFETDH; partner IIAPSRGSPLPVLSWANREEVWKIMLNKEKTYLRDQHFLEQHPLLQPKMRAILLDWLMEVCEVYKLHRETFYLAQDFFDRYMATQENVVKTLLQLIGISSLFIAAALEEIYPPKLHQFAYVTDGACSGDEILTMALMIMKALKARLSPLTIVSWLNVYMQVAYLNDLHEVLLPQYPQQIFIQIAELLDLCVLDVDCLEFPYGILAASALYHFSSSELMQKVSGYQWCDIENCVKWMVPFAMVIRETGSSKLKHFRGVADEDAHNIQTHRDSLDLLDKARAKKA
Change	normalised enrichment score
R5T	0.434
D12P	6.35
V3G	3.07
L7P	-0.0551
V3W	6.31
R6C	4.79
T11V	6.01
L7A	0.599
P2K	6.75
R5H	0.125
R5Q	0.586
V3D	0.155
P2L	6.1
E10P	6.2
F9K	0.114
F9P	0.0745
D12C	6.47
E10D	6.34
D8N	6.56
K4T	3.72
V3F	4.5
L7E	0.132
T11E	5.45
D8H	6.26
R5Y	0.323

Set 3
Target: Interferon regulatory factor 7, full length, phosphomimetic (IRF7, Homo sapiens, UniProt Q92985, residues 1-503, S101K/S471D/S472D/S475D/S476D/S477D/S483D/S484D/S487D)
Sequence of UniProt Q92985 (whole entry, unmodified, looked up): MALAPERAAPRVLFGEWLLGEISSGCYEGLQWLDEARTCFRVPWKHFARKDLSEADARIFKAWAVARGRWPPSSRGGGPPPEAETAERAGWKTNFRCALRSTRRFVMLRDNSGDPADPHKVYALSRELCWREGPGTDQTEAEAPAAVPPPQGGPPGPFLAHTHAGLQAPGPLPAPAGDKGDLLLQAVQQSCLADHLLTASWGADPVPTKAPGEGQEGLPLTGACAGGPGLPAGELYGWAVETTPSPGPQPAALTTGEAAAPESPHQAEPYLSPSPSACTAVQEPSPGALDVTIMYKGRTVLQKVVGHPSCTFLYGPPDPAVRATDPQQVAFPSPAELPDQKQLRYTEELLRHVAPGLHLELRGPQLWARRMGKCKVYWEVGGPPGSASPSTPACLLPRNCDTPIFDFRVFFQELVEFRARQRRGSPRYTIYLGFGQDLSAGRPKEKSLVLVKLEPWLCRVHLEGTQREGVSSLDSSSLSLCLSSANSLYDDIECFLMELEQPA
Method: protein-binding microarray
Molecule type: double-stranded DNA, one strand shown
Matrix: in vitro
Tested at: 250 nM
Setting: 60-bp whole probe
With: salmon DNA 0.4 mg/ml
Relative to: random background probes
Direction: higher = stronger binding
Constant ends, left off below: GCCTAGCAC … GTCTTGATTCGCTTGACGCTGCTG
Strand	log fluorescence
GACGATCTCAATCTCGAGACGTGCTAG	0.0248 z-score
AGGACCATCTCATATAAATAGGTGCTA	0.462 z-score
GACGATTTCGGGAATGGAGACGTGCTA	0.296 z-score
GACGAACTGGGGTATCGTGACGTGCTA	-0.607 z-score
TCAATTATTGTTTCCTTACTGTGCTAG	1.28 z-score
TTAGGTCTCAGTCTCGATTAGTGCTAG	1.89 z-score
TTAGGTCTCCTACTGCTCTAGTGCTAG	-0.314 z-score
GACGATTTCAGTCTCGAGACGTGCTAG	1.06 z-score
CACGATTTCGGGACTGGAGACGTGCTA	0.344 z-score
TTAGACCTGGGGTTTCGATTAGTGCTA	5.53 z-score
TTAGATATCGACTTTCGGTTAGTGCTA	1.75 z-score
TTTACTTTCTACGTCTGATTGTGCTAG	1.2 z-score
TTAGGACTTGACTATCGGTTAGTGCTA	-0.189 z-score
GTTGTACTTTCTATCTCTGTGTGCTAG	1.01 z-score
GACGATATCAGTTTCGGGACGTGCTAG	3.29 z-score
AGCTTTCCCAACATCAGAGCGTGCTAG	3.13 z-score
TTAGGTATCGGTTTTCGGTTAGTGCTA	5.92 z-score
TTAGGTCTCGTACTGCTTTAGTGCTAG	1.07 z-score
TTAGATTTCGGGTTTCGATTTGTGCTA	12.1 z-score
TCACAGCTCCCTTTCTCACTGTGCTAG	-0.185 z-score
TTAAATATCGGGTATCGATTAGTGCTA	0.865 z-score
TTAGATCTCAGACTGTATTAGTGCTAG	-0.0666 z-score
GCTCTCTTCTGCTTCCTCAGGTGCTAG	1.26 z-score
TCACCACTCCAGTTCTGACTGTGCTAG	-0.271 z-score
TTAGATCTCAATATCGATTAGTGCTAG	0.347 z-score

Set 4
Target: RING finger protein unkempt homolog, zinc fingers 1-6, GST-SBP tag (UNK, Homo sapiens, UniProt Q9C0B0, residues 30-357)
Sequence of UniProt Q9C0B0 (30-357, looked up): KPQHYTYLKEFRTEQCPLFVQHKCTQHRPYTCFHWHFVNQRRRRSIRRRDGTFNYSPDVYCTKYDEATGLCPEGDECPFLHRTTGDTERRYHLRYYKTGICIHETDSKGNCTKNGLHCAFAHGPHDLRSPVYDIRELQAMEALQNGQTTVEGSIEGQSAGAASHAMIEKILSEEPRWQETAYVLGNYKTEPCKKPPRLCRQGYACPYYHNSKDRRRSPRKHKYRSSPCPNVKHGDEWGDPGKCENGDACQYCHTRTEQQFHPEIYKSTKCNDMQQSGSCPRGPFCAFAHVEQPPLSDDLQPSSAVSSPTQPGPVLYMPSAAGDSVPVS
Method: RNA Bind-n-Seq
Molecule type: RNA
Matrix: in vitro
Tested at: not given
Setting: RNA with constant flanks, human-mouse chimeric sites, ends assumed
Relative to: input RNA pool
Direction: higher = stronger binding
Constant ends, left off below: GGGAGUUCUACAGUCCGACGAUC … CAACAGAGGAUUGAGCAUCA
Strand	bound/input enrichment
GAUCAUGAACCACCAUCAGAAAUGAAGAUGAGAUUACCCAGACGAGCCAAAACAGCUGCGCUACAGAAAAAGUAAACUAACCUUGCAGAGUUCCUUAAUGAAGAUACUAAGUUAGGAAGC	0.453 ratio
AGGAGGAGGUUAAAGGGUGAGAGUGGGGUGGAAGACUGUGUCAUGGCUCUGGAGACAUUGUUUAGUGUCCUGCUUUCUCUUUGCAGACUGAUGGCCCCUUACACGCCCUUUCUGACUGAG	0.127 ratio
AAAGAGUGGAUAGAGUGUGCACACGGGAUCGGUGGGACCCGGGCGAAGAAAGAGUGCAAGAUAGAGUUCGAUGACUUCGUAGAGUGUUUGCUUCGGUACAAAACGAUGAGGCGAAUGCAU	0.368 ratio
CAGCCUCAGAGCCCUGACUUCCUGGAUAUUACCAACCCUAAAGCGGUAUUAGAAAAUGCAUUGAGAAACUUCGCCUGUCUGACGACUGGAGAUGUGAUUGCUAUCAACUAUAAUGAAAAG	0.695 ratio
AAAGGCAAAAAGGGCAGCUGUGUCAUUACUUGGGAGACUCUGGGGGAGGGAAAUUCUGUUCUUUUGUUUAAUUUUCCCCCAAAUGAAGCCAAAGUGUGUGUUGAAGAACUGAGAAAAAAU	0.201 ratio
UAAGUUAUUUUGUACAGCUUUGUAAAUUGUAUAGCUUUUUAUAUUGCACAUUUUAUGUUGUUUGGGUAAUUUGGUUCAUUAAGUACAUAGCUAAGGUAAUGAACAUCUUUUUCAGUAAUU	1.29 ratio
UCUUUAAAUGCACUACAACCUUUUCUGACAGUGCUUUCCCUCCCAUAGGUCCAGGUUCAAGCUCAAAGAGCAAAGGCUUUGCACGGAGCUCAAACAUCUGAUGAAGAAAGAUUUCUGAGA	0.271 ratio
GACUUUGGGACUGGUCCUCGCAACGCAGCCUACUAUAGCCCUCAUGGACAUAUAUUAGUGCUGGCUGGAUUUGGAAAUCUUCGAGGACAAAUGGAAGUAUGGGAUGUGAAAAACUACAAG	0.362 ratio
ACACAAUAUGAGACCAACAGCAUGGACUUCAAAGUUGGGGCAGAUGGGACAGUCUUCGCCACUAGGGAGCUGCAGGUCCCCUCCGAGCAGGUGGCCUUCACGGUGACUGCAUGGGACAGC	0.168 ratio
CACACACUCUUCUGCGGGACCCUCAUCUUGCAGGCCCGGGCCUAUGUGGGACCGCACGUCCUGGCAGUGGUGACUCGGACAGGGUUCUGCACGGCAAAAGGGGGCCUGGUGAGCUCCAUC	0.117 ratio
GCGGCAGAAUCAUGGAGGACAUAAUGCAGCUCCCCAAAGCGCGCGUCAACGCCAGCAUGUUACCACAGUAUAUCGACCGGCCCGUGUGCUUCGUGGGGAGGCUGGAAAAGAUUCAUCCCA	0.13 ratio

A few entries again (set 2):
Change	normalised enrichment score
T11V	6.01
E10P	6.2
D12P	6.35
T11E	5.45
V3G	3.07
R6C	4.79
E10D	6.34
F9K	0.114
L7P	-0.0551
R5T	0.434
L7E	0.132
D8H	6.26
R5Y	0.323
K4T	3.72
